Published values pooled from the literature.
Each numbered part is a random draw from the data of one study; scales do not carry over between parts. Substitutions count along the parent as printed.

Sample 1
Target: ATF1, bZIP domain (human)
Technique: DHFR protein complementation
Medium: yeast
Setting: single substitutions, most at no-binding floor
Relative to: wild-type JUN-FOS pair
Direction: higher = stronger binding
Endpoint: binding fitness
Starting sequence: JUN, bZIP domain (human); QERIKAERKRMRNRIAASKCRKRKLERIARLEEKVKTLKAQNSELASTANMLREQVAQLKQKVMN; partner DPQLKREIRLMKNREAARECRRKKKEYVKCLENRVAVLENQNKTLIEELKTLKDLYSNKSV
R30Q: -1.53 natural log
A57R: -1.51 natural log
R53F: -1.6 natural log
V35D: -1.61 natural log
M51R: -1.5 natural log
L52W: -1.55 natural log
V35Q: -1.6 natural log
L52C: -1.57 natural log
L31R: -1.53 natural log
L31P: -1.54 natural log
I28Y: -1.41 natural log
M51V: -1.48 natural log
Q41V: -1.49 natural log
A29V: -1.45 natural log
K36T: -1.46 natural log
A29K: -1.42 natural log
E32W: -1.5 natural log
A29P: -1.5 natural log
L31G: -1.53 natural log
R30G: -1.48 natural log
V56A: -1.5 natural log
L31V: -1.52 natural log
S43P: -1.48 natural log
L52Q: -1.53 natural log
M51I: -1.46 natural log

Sample 2
Target: PABPC1L2, full length, GST fusion (mouse, UniProt A0ABA7IW68)
Technique: RNAcompete
Molecule type: RNA
Medium: in vitro
Tested at: 20 nM
Setting: 7-mer, probes averaged, single round
Relative to: mean of 7-mers
Direction: higher = stronger binding
Endpoint: 7-mer Z-score
Construct (chain): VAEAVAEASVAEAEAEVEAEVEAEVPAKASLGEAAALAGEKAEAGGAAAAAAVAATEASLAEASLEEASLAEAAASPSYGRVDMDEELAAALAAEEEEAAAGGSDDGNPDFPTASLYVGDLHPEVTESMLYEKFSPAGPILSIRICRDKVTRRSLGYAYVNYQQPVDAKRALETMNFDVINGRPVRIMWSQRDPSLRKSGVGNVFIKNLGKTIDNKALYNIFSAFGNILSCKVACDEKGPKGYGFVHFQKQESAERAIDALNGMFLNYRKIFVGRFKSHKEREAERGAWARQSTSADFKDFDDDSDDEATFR
GACUCCU: -0.315
CGUAGAG: -0.117
UGCUAGC: -0.26
GGUGGCU: 0.12
GUUCGCG: -0.4
ACGAUUA: -0.122
UGGGGCA: 0.483
CUUGUUA: -0.391
AGGCUCC: -0.0736
GAUCUAG: -0.162
UCUCGUA: -0.217
CUGUCCA: -0.354
ACGCAGA: 0.131
AAGGGGA: 0.751
UCAUCAA: -0.0899
GAUUCAU: -0.146
CGUAGGG: 0.017
CUAGCAU: -0.153
UCUAAUU: -0.4
UAAGGAG: 0.0569
CUGUGUU: -0.376
GCUGGUC: -0.0536
ACAGGUG: 0.0714
AUGAACU: -0.0989
UCAACAU: -0.224

Sample 3
Target: Sal-like protein 4, full length isoform B (SALL4, Homo sapiens, UniProt Q9UJQ4-2, residues 1-616)
Technique: universal PBM
Molecule type: double-stranded DNA, one strand shown
Medium: in vitro
Tested at: not given
Setting: 8-mer, flanks averaged, mean of replicates
Direction: higher = stronger binding
Endpoint: E-score
AAATTGAG: 0.183
CATCAAGC: -0.0984
AAGCCGGT: -0.137
CGGGTTGA: -0.264
GCATCCCC: -0.157
ACCAGCGT: -0.133
ACATAACC: 0.161
ACGATGTC: -0.142
GACGCTGC: -0.261
CCGGAGCG: -0.23
CGTTAGAG: -0.0568
ATCAGATG: 0.0769
CCAACTTA: 0.0328
GACAGGAC: -0.152
CCAGGCCA: -0.347
CTAATGAG: -0.0383
CTGTTCAA: 0.0157

Sample 4
Target: Interferon regulatory factor 7, full length, phosphomimetic (IRF7, Homo sapiens, UniProt Q92985, residues 1-503, S471D/S472D/S475D/S476D/S477D/S483D/S484D/S487D)
Technique: protein-binding microarray
Molecule type: double-stranded DNA, one strand shown
Medium: in vitro
Tested at: 2200 nM top
Setting: 60-bp whole probe
With: salmon DNA 0.4 mg/ml
Relative to: random background probes
Direction: higher = stronger binding
Endpoint: fitted relative affinity
Constant ends, left off below: GCCTAGCAC … GTCTTGATTCGCTTGACGCTGCTG
Construct (chain): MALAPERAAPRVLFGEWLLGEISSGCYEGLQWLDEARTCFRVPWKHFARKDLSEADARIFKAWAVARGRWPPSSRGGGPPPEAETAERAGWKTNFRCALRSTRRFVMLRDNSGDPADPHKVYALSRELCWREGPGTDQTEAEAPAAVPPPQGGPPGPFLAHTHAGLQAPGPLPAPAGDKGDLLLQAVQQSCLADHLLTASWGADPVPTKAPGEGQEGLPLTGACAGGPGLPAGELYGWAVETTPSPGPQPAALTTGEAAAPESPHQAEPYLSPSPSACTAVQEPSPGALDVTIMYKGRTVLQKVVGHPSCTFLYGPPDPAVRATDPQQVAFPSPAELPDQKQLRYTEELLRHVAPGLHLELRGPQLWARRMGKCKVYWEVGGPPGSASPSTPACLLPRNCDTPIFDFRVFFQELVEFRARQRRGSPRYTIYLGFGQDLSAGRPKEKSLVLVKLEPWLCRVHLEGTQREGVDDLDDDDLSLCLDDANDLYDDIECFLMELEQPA
TCATATGTGACCTTTTTAACTGTGCTA: 0.883 z-score
TCATGCTTGTGTCTGGGACTGTGCTAG: 0.547 z-score
GACGGACTGGGTATCGGGTCGTGCTAG: -0.539 z-score
GACGGTATCGGTTTCGGAACGTGCTAG: 4.4 z-score
GACGGTATCGACACTGGGGTCGTGCTA: -0.33 z-score
TAAGGACTGGGGTTTCGGTTAGTGCTA: 2.79 z-score
GACGATATCAGCCTGGAGACGTGCTAG: 0.167 z-score
GTGAGTCCCACATCTCTGTCCGTGCTA: 1.29 z-score
TTAGAACTGAGTCTCGACTAGTGCTAG: -0.55 z-score
TTACGTATCGGGTTTCGGTTAGTGCTA: 4.91 z-score
TCATCTCTCTATTCAGAACTGTGCTAG: 1.39 z-score
TTAGGACTGGGGCTGGGTTAGTGCTAG: -0.633 z-score
GACGAACTGAGTTTCGAGCCGTGCTAG: 1.72 z-score
TCAGCTATCACTATTCTACTGTGCTAG: 0.966 z-score
CATTATATTTTAATCACATAGTGCTAG: 0.555 z-score
TTAGATCTCAGCATCGATTAGTGCTAG: -0.194 z-score
GACGATTTCGACTTTCGGGACGTGCTA: 5.7 z-score
TTAGGACTGAGACTGGGTTAGTGCTAG: -0.513 z-score
TCATACTTCTCTTTTGGACTGTGCTAG: 1.82 z-score

Sample 5
Target: CCNB2, cyclin fold, Cln2 fusion (human)
Technique: yeast growth competition, sequencing
Medium: yeast
Setting: weak parent motif
Relative to: not given
Direction: higher = stronger binding
Endpoint: normalised enrichment score
Starting sequence: PKN2 docking peptide (human); VSAVQKLDFSDTM
A3D: -1.01
D8Q: -0.224
D11M: -0.241
D8A: 0.00375
S2K: -0.275
F9G: -0.146
S2E: -0.353
S2I: -0.0219
T12V: 0.107
A3P: 0.47
S10R: -0.0222
Q5A L7A: 0.0297
D11W: -0.0391
A3N: -0.218
L7T: -0.268
K6H: -0.231
K6P: -0.663
M13F: -0.157
M13Y: 0.527
M13L: 0.23
A3M: 0.059
M13C: -0.0462
A3S: -0.246
S10Q: -0.689
V1G: 0.0168

Sample 6
Target: ABI1, truncated, D143A, DHFR fusion (Arabidopsis thaliana)
Technique: DHFR PCA, deep sequencing
Medium: yeast
Setting: methotrexate growth selection, single substitutions
With: (+)-ABA 58 µM
Relative to: wild-type fitted maximum
Direction: higher = stronger binding
Endpoint: relative binding score
Starting sequence: PYL1, truncated, DHFR fusion (Arabidopsis thaliana); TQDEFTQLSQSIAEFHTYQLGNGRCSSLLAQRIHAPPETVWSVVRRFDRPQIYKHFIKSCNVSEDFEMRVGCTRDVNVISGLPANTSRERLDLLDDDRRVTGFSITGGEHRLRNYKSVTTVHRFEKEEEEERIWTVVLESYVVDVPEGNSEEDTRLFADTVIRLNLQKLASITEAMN; partner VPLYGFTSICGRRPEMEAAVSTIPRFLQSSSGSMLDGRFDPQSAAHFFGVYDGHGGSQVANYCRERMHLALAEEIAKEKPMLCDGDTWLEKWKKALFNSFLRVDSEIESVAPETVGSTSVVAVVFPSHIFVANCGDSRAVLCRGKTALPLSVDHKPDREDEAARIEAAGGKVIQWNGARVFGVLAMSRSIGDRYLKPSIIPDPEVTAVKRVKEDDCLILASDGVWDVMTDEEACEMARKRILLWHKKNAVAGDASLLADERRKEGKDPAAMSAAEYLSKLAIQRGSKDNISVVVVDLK
S80A: 22.3%
S11N: 64.3%
K116E: 50.7%
I79E: 59.8%
S150P: 16.3%
T1S: 84.4%
T160H: 73.5%
D3E: 86.9%
N149I: 35.3%
E174W: 36.6%
I172Y: 77.8%
V62M: 76.6%
G71L: 10.6%
K126Y: 94.6%

Excerpt of the above (sample 1):
L52W: -1.55 natural log
V35Q: -1.6 natural log
L52C: -1.57 natural log
L31R: -1.53 natural log
L31P: -1.54 natural log
I28Y: -1.41 natural log
M51V: -1.48 natural log
Q41V: -1.49 natural log
A29V: -1.45 natural log
K36T: -1.46 natural log
A29K: -1.42 natural log
E32W: -1.5 natural log
A29P: -1.5 natural log
L31G: -1.53 natural log
R30G: -1.48 natural log
